Measured values from different studies.
Several values in a cell are separate wells, animals, samples, runs or records. Numbers after ± are the reported error.
Tumor necrosis factor receptor superfamily member 1A extracellular domain: Tumor necrosis factor receptor superfamily member 1A, extracellular domain (Homo sapiens, UniProt P19438)
Chain of UniProt P19438 (whole entry, looked up): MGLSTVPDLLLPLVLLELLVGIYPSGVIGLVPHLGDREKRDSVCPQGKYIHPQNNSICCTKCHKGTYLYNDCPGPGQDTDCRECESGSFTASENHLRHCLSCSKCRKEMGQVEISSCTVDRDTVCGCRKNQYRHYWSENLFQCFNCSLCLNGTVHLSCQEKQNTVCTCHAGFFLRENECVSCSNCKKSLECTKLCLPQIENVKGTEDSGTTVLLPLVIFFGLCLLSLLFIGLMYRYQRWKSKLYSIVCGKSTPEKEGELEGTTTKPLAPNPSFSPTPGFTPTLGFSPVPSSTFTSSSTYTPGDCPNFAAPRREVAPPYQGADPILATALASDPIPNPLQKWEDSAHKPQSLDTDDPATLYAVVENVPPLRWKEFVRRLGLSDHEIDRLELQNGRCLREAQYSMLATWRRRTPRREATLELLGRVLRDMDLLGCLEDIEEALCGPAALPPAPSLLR
GATD3: Glutamine amidotransferase-like class 1 domain-containing protein 3, mitochondrial (GATD3, Homo sapiens, UniProt P0DPI2)
Chain of UniProt P0DPI2 (whole entry, looked up): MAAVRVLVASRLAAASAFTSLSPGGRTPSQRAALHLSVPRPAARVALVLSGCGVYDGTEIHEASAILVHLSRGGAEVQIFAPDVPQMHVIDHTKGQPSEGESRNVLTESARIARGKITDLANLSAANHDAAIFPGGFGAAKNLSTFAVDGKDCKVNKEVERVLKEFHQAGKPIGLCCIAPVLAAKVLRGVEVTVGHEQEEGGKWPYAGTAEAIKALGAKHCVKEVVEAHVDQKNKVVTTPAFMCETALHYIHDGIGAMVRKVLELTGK
USP5 ZnF-UBD domain: Ubiquitin carboxyl-terminal hydrolase 5, ZnF-UBD domain (USP5, Homo sapiens, UniProt P45974)
Chain of UniProt P45974 (whole entry, looked up): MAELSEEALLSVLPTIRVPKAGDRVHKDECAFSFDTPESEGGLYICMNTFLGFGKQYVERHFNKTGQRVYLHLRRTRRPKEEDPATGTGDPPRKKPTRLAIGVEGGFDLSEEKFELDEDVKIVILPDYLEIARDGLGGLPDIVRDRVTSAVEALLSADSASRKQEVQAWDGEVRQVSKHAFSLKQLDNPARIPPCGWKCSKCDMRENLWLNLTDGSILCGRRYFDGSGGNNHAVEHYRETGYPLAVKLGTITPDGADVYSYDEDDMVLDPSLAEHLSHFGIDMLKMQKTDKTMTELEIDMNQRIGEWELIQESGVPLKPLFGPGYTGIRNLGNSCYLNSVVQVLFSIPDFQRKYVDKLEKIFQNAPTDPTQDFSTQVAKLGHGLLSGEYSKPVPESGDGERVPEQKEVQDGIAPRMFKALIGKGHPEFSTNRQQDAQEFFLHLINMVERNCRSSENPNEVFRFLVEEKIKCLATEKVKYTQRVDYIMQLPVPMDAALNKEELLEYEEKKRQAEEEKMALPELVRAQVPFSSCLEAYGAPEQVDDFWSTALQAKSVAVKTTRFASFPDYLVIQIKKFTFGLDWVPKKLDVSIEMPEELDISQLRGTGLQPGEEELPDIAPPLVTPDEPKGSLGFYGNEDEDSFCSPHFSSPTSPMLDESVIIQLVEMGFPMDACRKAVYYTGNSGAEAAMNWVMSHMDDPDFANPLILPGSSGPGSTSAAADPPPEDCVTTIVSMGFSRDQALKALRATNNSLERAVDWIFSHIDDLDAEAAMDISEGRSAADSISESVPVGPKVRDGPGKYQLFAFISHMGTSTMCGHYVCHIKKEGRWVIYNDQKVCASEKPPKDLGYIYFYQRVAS
HDAC5: Histone deacetylase 5 (HDAC5, Homo sapiens, UniProt Q9UQL6)
Chain of UniProt P53779 (whole entry, looked up): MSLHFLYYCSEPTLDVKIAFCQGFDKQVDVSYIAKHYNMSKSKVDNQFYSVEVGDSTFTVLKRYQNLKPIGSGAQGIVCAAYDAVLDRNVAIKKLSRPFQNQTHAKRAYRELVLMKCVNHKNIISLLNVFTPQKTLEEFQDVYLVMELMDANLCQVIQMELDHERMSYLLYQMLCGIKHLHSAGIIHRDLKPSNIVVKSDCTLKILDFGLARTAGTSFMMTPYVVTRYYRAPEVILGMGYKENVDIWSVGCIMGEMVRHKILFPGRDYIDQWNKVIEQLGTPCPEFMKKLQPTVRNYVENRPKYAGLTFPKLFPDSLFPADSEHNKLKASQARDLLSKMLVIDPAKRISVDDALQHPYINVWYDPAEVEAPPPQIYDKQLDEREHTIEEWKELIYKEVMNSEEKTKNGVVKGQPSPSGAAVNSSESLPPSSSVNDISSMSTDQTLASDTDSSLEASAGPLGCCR
Chain of UniProt Q9UQL6 (whole entry, looked up): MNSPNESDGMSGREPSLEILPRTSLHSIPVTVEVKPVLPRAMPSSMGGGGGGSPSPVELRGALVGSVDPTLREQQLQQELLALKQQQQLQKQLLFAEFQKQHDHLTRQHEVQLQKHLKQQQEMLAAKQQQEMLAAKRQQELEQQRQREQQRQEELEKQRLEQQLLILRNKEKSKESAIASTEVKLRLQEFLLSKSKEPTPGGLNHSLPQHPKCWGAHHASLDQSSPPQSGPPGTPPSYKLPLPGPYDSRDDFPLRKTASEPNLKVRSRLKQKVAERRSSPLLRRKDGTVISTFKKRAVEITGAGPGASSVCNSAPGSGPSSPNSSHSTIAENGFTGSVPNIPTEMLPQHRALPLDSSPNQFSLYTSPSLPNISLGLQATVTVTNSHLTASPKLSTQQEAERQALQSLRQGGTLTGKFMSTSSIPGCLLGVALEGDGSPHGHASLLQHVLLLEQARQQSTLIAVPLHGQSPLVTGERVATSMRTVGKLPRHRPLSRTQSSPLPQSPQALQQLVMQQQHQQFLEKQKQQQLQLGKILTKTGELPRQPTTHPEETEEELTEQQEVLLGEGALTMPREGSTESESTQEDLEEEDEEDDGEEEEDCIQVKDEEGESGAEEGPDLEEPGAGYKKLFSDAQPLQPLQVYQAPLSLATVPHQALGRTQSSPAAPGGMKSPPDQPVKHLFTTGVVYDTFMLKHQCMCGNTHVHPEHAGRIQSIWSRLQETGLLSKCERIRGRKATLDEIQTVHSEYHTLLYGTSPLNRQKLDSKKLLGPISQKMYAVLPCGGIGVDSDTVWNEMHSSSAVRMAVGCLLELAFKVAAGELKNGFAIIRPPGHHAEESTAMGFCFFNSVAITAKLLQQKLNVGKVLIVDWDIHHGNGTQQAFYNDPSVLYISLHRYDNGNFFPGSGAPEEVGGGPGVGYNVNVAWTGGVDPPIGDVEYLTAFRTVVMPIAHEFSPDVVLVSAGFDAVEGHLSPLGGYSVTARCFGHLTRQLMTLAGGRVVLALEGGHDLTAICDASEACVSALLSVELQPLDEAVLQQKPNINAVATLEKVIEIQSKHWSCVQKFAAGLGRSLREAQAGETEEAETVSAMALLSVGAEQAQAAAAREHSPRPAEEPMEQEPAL
Chain of UniProt P45983 (whole entry, looked up): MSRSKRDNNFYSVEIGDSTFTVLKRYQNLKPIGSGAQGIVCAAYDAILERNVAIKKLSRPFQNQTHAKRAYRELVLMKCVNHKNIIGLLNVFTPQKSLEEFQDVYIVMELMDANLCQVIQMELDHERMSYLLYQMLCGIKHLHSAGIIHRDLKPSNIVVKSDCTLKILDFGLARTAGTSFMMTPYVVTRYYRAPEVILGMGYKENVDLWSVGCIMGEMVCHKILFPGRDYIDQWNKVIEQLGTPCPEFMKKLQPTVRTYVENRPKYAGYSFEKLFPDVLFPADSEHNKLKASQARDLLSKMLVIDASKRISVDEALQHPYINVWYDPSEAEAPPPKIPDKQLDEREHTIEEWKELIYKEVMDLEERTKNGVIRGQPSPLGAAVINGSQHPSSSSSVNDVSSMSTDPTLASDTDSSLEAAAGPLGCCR
Chain of UniProt Q9EQY0 (whole entry, unmodified, looked up): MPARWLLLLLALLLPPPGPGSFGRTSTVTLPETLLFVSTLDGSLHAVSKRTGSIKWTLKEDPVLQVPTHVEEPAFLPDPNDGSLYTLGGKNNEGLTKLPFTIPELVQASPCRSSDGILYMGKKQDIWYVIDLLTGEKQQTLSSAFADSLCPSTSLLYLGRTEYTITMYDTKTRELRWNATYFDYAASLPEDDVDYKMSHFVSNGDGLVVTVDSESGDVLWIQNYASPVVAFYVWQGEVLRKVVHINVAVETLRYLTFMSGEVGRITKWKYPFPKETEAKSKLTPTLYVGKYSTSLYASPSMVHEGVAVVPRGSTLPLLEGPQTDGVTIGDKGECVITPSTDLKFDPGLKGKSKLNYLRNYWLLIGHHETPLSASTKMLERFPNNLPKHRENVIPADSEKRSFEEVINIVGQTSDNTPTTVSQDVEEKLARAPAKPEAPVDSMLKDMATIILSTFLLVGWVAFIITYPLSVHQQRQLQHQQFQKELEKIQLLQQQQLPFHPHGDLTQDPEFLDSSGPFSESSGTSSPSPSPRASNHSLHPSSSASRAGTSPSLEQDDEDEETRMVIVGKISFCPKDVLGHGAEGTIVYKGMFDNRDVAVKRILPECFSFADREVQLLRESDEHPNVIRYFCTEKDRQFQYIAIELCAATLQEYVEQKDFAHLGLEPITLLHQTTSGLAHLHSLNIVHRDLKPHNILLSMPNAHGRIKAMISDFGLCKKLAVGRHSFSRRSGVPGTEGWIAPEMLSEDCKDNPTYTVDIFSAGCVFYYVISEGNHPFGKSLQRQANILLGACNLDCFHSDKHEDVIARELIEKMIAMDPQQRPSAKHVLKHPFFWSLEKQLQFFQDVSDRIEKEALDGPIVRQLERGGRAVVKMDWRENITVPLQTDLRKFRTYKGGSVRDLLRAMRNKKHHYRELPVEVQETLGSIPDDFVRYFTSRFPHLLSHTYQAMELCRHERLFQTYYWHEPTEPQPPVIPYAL
Chain of UniProt P40337 (whole entry, looked up): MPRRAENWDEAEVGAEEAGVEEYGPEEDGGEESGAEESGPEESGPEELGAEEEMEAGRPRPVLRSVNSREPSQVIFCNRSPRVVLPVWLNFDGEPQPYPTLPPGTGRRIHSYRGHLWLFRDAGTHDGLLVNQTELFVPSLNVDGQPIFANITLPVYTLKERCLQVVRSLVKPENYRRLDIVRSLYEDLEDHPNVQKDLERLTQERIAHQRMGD
Chain of UniProt P62993 (whole entry, looked up): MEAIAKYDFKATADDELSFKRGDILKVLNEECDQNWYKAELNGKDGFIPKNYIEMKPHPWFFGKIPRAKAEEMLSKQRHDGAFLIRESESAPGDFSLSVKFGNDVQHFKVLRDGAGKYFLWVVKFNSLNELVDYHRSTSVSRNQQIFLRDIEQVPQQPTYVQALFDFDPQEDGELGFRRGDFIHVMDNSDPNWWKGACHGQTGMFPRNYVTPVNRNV

With `NC(=O)C[C@H](N)C(=O)O` the Kd was 65 ± 5 µM (Methyl-accepting chemotaxis protein, ligand-binding domain (Pectobacterium atrosepticum, UniProt Q6D6I9); isothermal titration calorimetry; pH 6.0, 25 °C, ligand-binding domain).
`CS(=O)(=O)NC(=O)c1cc(-c2ccc(N)cc2)ccn1` gave a Kd of 978 ± 112 µM (Tumor necrosis factor receptor superfamily member 1A extracellular domain; SPR OneStep; immobilized target).
The Kd of `Cn1cc(CNCC2CCN(c3ncc(C(=O)NO)cn3)CC2)c2ccccc21` is reported as > 30.2 µM (GATD3; inhibitor, competition pulldown; SW620 and MV4-11 lysate; 1 h).
For `CC[C@H](C)[C@H](NC(=O)[C@H](CCC(=O)O)NC(=O)[C@@H](N)CC(C)C)C(=O)N[C@@H](CCC(=O)O)C(=O)N1CCC[C@H]1C(=O)N[C@@H](CCCNC(=N)N)C(=O)N[C@@H](CC(N)=O)C(=O)N1CCC[C@H]1C(=O)N[C@@H](CCCCN)C(=O)N1CCC[C@H]1C(=O)O`, the Kd was 1250 µM (GRB2 (Homo sapiens, UniProt P62993); binding, NMR titration, measured: nSH3 domain; added: SOS1 proline-rich peptide).
For `C=CC(=O)N1CCN(c2nc(OC[C@@H]3CCCN3C)nc3c(F)c(-c4nc(N)cc(C)c4C(F)(F)F)c(Cl)cc23)[C@@H](C)C1`, the Kd was 0.469 ± 0.014 µM (GTPase KRas, GDP-bound (KRAS, Homo sapiens, UniProt P01116, Q61R); SPR).
`C/C=C1\NC(=O)[C@H]2CSSCC/C=C/[C@H](CC(=O)N[C@H](C(C)C)C(=O)N2)OC(=O)[C@H](C(C)C)NC1=O` gave a Kd of > 30.2 µM (GATD3; inhibitor, competition pulldown; SW620 and MV4-11 lysate; 1 h).
The Kd of `O=C(O)Cc1nc2ccccc2[nH]1` is reported as > 1000 µM (USP5 ZnF-UBD domain).
With `OB(O)CSc1nc2ccccc2n1Cc1ccc(C(F)(F)F)cc1C(F)(F)F` the Kd was 10.2 µM (Regulatory protein BlaR1, sensor domain (blaR1, Staphylococcus aureus, UniProt P18357); binding, tryptophan fluorescence quenching; 1 h).
`O=C(O)CCC(=O)Nc1ccccc1` has a Kd of > 1000 µM (USP5 ZnF-UBD domain).
For `O=C(O)c1cncc(-c2ccc3[nH]ccc3c2)c1`, the Kd was 112 µM (Tumor necrosis factor receptor superfamily member 1A extracellular domain; binding, SPR OneStep).
`O=C(O)CC1Oc2ccccc2NC1=O` (stereo not shown) has a Kd of > 1000 µM (USP5 ZnF-UBD domain).
With `Nc1nnc(-c2ccncc2)s1` the Kd was 142 µM and 182 µM (MAPK8 (Homo sapiens, UniProt P45983)).
The Kd of `O=C(O)c1cc(-c2ccc(F)cc2)cc(CO)n1` is reported as 1090 ± 140 µM (Tumor necrosis factor receptor superfamily member 1A extracellular domain; binding, SPR OneStep).
`O=C(O)CCC1=Nc2cccc3cccc(c23)N1` has a Kd of > 1000 µM (USP5 ZnF-UBD domain).
The Kd of `CCCC(CCC)C(=O)O` is reported as > 3020 µM (GATD3; inhibitor, competition pulldown; SW620 and MV4-11 lysate; 1 h).
`O=C(O)CCn1cnc2ccccc21` gave a Kd of > 1000 µM (USP5 ZnF-UBD domain).
The Kd of `Nc1ccc(-c2cc(CO)nc(C(=O)O)c2)cc1` is reported as 868 ± 2 µM (Tumor necrosis factor receptor superfamily member 1A extracellular domain; binding, SPR OneStep).
For `C=CC1=C(C)/C(=C/c2[nH]c(Cc3[nH]c(/C=C4\NC(=O)C(C)=C4C=C)c(C)c3CCC(=O)O)c(CCC(=O)O)c2C)NC1=O`, the Kd was 0.136 ± 0.0765 µM (ROCK2 (Homo sapiens, UniProt O75116); binding, microscale thermophoresis; HEK293T cell lysate).
`O=C(O)CNC(=O)c1ccc(C(=O)N2CCC(c3ccc(Cl)cc3)CC2)cn1` has a Kd of 71.1 µM (USP5 ZnF-UBD domain).
`O=P([O-])([O-])O.[Na+].[Na+]` gave a Kd of 0.107 µM and 0.163 µM and 0.128 µM (SAR11_1179 protein (Candidatus Pelagibacter ubique); binding, isothermal titration calorimetry; one-set-of-sites model).
With `O=C(O)c1cc(-c2ccc(F)cc2)ccn1` the Kd was ≤ 1500 µM (Tumor necrosis factor receptor superfamily member 1A extracellular domain; binding, SPR OneStep injection; fragment screen).
For `CCCN1CCN(c2ccc(-c3cncc(Cl)c3N3CCC4(CCNC4=O)CC3)cc2)CC1`, the Kd was 0.044 µM (MED13 human; SILAC competition; LS174T-L5 lysate).
The Kd of `O=C(/C=C/c1cccc(S(=O)(=O)Nc2ccccc2)c1)NO` is reported as > 30.2 µM (GATD3; inhibitor, competition pulldown; SW620 and MV4-11 lysate; 1 h).
`NCCc1c[nH]c2ccc(O)cc12` has a Kd of 0.00572 ± 0.00073 µM (5-hydroxytryptamine receptor 1E (5HT1E, Cavia porcellus, UniProt Q6VB83); binding, radioligand, saturation binding; hippocampal membranes; pH 7.4, 37 °C, added: ritanserin 30 nM, 5-CT masking).
`CC(=O)N[C@H]1[C@@H](OC(C)C(N)C(=O)O)O[C@H](CO[C@]2(C(=O)O)C[C@H](O)[C@@H](NC(C)=O)[C@H]([C@H](O)[C@H](O)CO)O2)[C@H](O)[C@@H]1O` (stereo partly shown) has a Kd of 25 µM (CLEC10A, carbohydrate recognition domain (Homo sapiens, UniProt Q8IUN9); isothermal titration calorimetry; 293 K; lower = stronger binding).
`Cn1cc(-c2ccc(S(=O)(=O)n3ccc(/C=C/C(=O)Nc4ccccc4N)c3)cc2)cn1` gave a Kd of > 30.2 µM (GATD3; inhibitor, competition pulldown; SW620 and MV4-11 lysate; 1 h).
The Kd of `OC[C@H]1O[C@@](CO)(O[C@H]2O[C@H](CO)[C@@H](O)[C@H](O)[C@H]2O)[C@@H](O)[C@@H]1O` is reported as > 300 µM (uncharacterized protein (Streptococcus pneumoniae, UniProt A0A0H2ZPW1); binder, isothermal titration calorimetry; 25 °C, wild type).
The Kd of `O=C(O)CCn1c(=O)oc2ccccc21` is reported as > 1000 µM (USP5 ZnF-UBD domain).
`CC(=O)N[C@H](C(=O)N1C[C@H](O)C[C@H]1C(=O)NCc1ccc(-c2scnc2C)cc1)C(C)(C)SCCCCCCNC(=O)C[C@@H]1N=C(c2ccc(Cl)cc2)c2c(sc(C)c2C)-n2c(C)nnc21` has a Kd of 0.207 ± 0.002 µM (VHL/BRD3, BD1; with Elongin B/C (Homo sapiens, UniProt P40337+Q15059); ITC; 25 °C, PROTAC:Brd3^BD1, ternary).
For `CCN(CC)Cc1ccc2cc(COC(=O)Nc3ccc(C(=O)NO)cc3)ccc2c1`, the Kd was > 30.2 µM (GATD3; inhibitor, competition pulldown; SW620 and MV4-11 lysate; 1 h).
`Nc1nc(-c2ccc(Cl)c(S(N)(=O)=O)c2)cs1` gave a Kd of 0.13 µM (CA9 (Homo sapiens, UniProt Q16790); binding; pH 7).
The Kd of `O=C(Nc1nnc(-c2ccncc2)s1)C(F)(F)I` is reported as 6.49 µM and 19 µM (MAPK10 (Homo sapiens, UniProt P53779); pH 7.4).
The Kd of `O=C(O)CN1Cc2ccccc2C1=O` is reported as > 1000 µM (USP5 ZnF-UBD domain).
`Nc1ncnc2c1ncn2[C@@H]1O[C@H](COP(=O)(O)OP(=O)(O)OP(=O)(O)O)[C@@H](O)[C@H]1O` has a Kd of 13 ± 4 µM (CKMT1A (Homo sapiens, UniProt P12532, E265Q); microscale thermophoresis; pH 8.5, E227Q mutant, no substrate).
With `O=C(O)c1cc(-c2cccc(O)c2)ccn1` the Kd was 721 ± 9 µM (Tumor necrosis factor receptor superfamily member 1A extracellular domain; SPR OneStep; immobilized target).
For `CCCCOc1ccc(CC(=O)NO)cc1`, the Kd was > 30.2 µM (HDAC5; inhibitor, competition pulldown; SW620 and MV4-11 lysate; 1 h).
With `Nc1cccc(-c2ccnc(C(=O)O)c2)c1` the Kd was 690 ± 30 µM (Tumor necrosis factor receptor superfamily member 1A extracellular domain; binding, SPR; irregular sensorgram).
For `COCCOCCc1c(C)c2cc(OC)c(O)c(C=O)c2oc1=O`, the Kd was 0.87 µM and 0.81 µM (Serine/threonine-protein kinase/endoribonuclease IRE1 (Mus musculus, UniProt Q9EQY0, N772Y); microscale thermophoresis).
The Kd of `O=C(CN(Cc1ccccc1)S(=O)(=O)c1ccc(F)cc1)Nc1cccc(Cl)c1Cl` is reported as 7.73 ± 0.48 µM (Sodium channel protein type 8 subunit alpha, C-terminal domain (SCN8A, Homo sapiens, UniProt Q9UQD0); binding, surface plasmon resonance).
The Kd of `CN(C)Cc1c(C(=O)NCCOc2ccc(C(=O)NO)cc2)oc2ccccc12` is reported as > 30.2 µM (HDAC5; inhibitor, competition pulldown; SW620 and MV4-11 lysate; 1 h).
The Kd of `CO[C@H]1O[C@H](COS(=O)(=O)O)[C@@H](O[C@@H]2O[C@@H](C(=O)O)[C@@H](O[C@H]3O[C@H](COS(=O)(=O)O)[C@@H](O[C@@H]4O[C@H](C(=O)O)[C@@H](O[C@H]5O[C@H](COS(=O)(=O)O)[C@@H](O)[C@H](O)[C@H]5NS(=O)(=O)O)[C@H](O)[C@H]4O)[C@H](OS(=O)(=O)O)[C@H]3NS(=O)(=O)O)[C@H](O)[C@H]2OS(=O)(=O)O)[C@H](O)[C@H]1NS(=O)(=O)O` is reported as 14.7 µM (Beta-2-glycoprotein 1, domain V (APOH, Homo sapiens, UniProt P02749, V266L); isothermal titration calorimetry; 25 mM cacodylate buffer; pH 7.2, 298 K, added: 100 mM NaCl).
`NC(=O)c1cccc(-c2ccnc(C(=O)O)c2)c1` gave a Kd of 1000 ± 400 µM (Tumor necrosis factor receptor superfamily member 1A extracellular domain; binding, SPR; irregular sensorgram).
With `Nc1ncnc2c1ncn2[C@@H]1O[C@H](COP(=O)(O)OP(=O)(O)O)[C@@H](O)[C@H]1O` the Kd was 30 ± 5 µM (CKMT1A (Homo sapiens, UniProt P12532, D359N); microscale thermophoresis; pH 7.0, D321N mutant, no substrate).

Some of these lines once more:
`O=C(O)CCC(=O)Nc1ccccc1` has a Kd of > 1000 µM (USP5 ZnF-UBD domain).
With `O=C(O)c1cc(-c2cccc(O)c2)ccn1` the Kd was 721 ± 9 µM (Tumor necrosis factor receptor superfamily member 1A extracellular domain; SPR OneStep; immobilized target).
The Kd of `Cn1cc(CNCC2CCN(c3ncc(C(=O)NO)cn3)CC2)c2ccccc21` is reported as > 30.2 µM (GATD3; inhibitor, competition pulldown; SW620 and MV4-11 lysate; 1 h).
For `C=CC1=C(C)/C(=C/c2[nH]c(Cc3[nH]c(/C=C4\NC(=O)C(C)=C4C=C)c(C)c3CCC(=O)O)c(CCC(=O)O)c2C)NC1=O`, the Kd was 0.136 ± 0.0765 µM (ROCK2 (Homo sapiens, UniProt O75116); binding, microscale thermophoresis; HEK293T cell lysate).
